Assay results from different studies.
Each numbered part is a random draw from the data of one study; scales do not carry over between parts.

Study 1
Target: Centromere-binding protein 1, full length, His-tagged (CBF1, Saccharomyces cerevisiae, UniProt P17106, residues 1-351)
Chain of UniProt P17106 (whole entry, looked up): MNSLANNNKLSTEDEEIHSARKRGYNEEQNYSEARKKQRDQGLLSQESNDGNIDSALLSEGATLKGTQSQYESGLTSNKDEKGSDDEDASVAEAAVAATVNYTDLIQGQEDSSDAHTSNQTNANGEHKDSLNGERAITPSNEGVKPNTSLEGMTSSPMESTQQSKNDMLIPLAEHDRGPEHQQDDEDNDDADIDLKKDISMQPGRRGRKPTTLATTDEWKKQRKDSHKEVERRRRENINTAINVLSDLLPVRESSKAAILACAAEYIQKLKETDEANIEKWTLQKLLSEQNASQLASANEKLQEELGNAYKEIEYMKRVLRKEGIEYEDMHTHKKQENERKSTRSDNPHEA
Technique: competition protein-binding microarray
Form: double-stranded DNA, one strand shown
Matrix: in vitro
Tested at: 2 µM
Setting: whole 60-bp probe, lowest competitor level
With: Pho4 competitor, 0.05 µM
Direction: higher = stronger binding
Oligonucleotide | fluorescence intensity [a.u.]
CTTTCCCGATCTTTTCACGTGAGATTAGCACATTTGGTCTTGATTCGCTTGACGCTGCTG | 923
AGTTCATCGATGTAGCATGTGTACGCATTTCTAGATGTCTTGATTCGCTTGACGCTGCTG | 91.7
AAGGGCCCTTGCCTACACGTGAATATGTCTATTTTAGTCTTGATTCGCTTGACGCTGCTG | 686
GCTGGAAGATAGCTTCACGTGGAACATTCCTGACTGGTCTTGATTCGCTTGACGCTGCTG | 540
CTAACGAAGGTTTGAGGTGTGGGTGACAAGCCAAGTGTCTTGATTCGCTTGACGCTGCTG | 64.7
GGCGTAGACTTGAGAAACATGACAACCACCAGGGACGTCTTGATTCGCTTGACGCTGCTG | 76.9
CATACCCAACCTTGTCTGGTGGGTGAAGATATTTGTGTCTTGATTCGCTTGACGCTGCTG | 72.2
GCAGCGGCGGCCTTTCTCGTGATGGTGGCGCTCGGAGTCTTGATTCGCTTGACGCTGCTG | 77.5
ATATACAAACTCCATCACGGGATCGATGTGGCTAAGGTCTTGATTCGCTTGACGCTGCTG | 731
CCAAAGCCCTCGAAACGCGTGTTCCTCTCAGCGGCAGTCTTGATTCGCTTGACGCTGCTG | 65.9
GGGGATGTTATGAACCATGTGGCTACTTTTATAAGCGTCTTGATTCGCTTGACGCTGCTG | 142
CGTCACTAGTACTATCACCTGAAAACATGCTTCCAAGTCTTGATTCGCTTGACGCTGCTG | 101
AAAGCGGTAATTTTTCACGTGAAATCAAATATCTATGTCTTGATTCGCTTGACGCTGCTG | 928
GCCCGGACACAGGGAATCGTGCGGAGCCGGGGATAAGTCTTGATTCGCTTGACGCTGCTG | 54.5
CTAACGAAGGTTTGCCTTGTGGGTGACAAGCCAAGTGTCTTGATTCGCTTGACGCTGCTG | 79
AAATTACTAAGTTGTCACCCAACTTACCCCGTATGAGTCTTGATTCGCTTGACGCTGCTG | 70
CTTTCCCGATCTTGTTCGGTGGGTGTAGCACATTTGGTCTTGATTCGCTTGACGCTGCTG | 66.3
TTCACCAGCGTTCCACACGTGTCGGCCATATCGTCAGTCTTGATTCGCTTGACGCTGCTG | 572

Study 2
Target: RNA binding protein fox-1 homolog 2, RRM domain, GST-SBP tag (RBFOX2, Homo sapiens, UniProt O43251-10, residues 100-194)
Technique: RNA Bind-n-Seq
Form: RNA
Matrix: in vitro
Tested at: 365 nM
Setting: natural RNA segment, single round, ends assumed
Reference: no-protein control
Direction: higher = stronger binding
Target sequence (chain): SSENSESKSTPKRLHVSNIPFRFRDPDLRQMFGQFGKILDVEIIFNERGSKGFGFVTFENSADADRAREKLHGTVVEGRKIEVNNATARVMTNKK
Oligonucleotide | RBNS enrichment (R)
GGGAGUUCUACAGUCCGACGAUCUGGCCGUCUGUUCACAAGCCCAAGGUGCUAGAACUAGCUUAGGAGACAUGCAGGCCACAGGGCUUCUAGGCAGGGAAAGGGCACACACCCUAGGUCAGCGUGCAGAGCAGUGGAAUUCUCGGGUGCCAA | 0.743
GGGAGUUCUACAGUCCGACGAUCGUGCAGAGGUGGUUGCUGCUUCCAGUUUCCCUUCAGACUUAGCUGUGUGAACCCCACUCCUAUCCUUUGGCCUUAGUUUUCCCAUCUGUAAAACUCAGAAACGCAGUUGGUGGAAUUCUCGGGUGCCAA | 0.436
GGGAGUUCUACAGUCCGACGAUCCCAGUUUGAUGGAGAAAAAGUCAAAGACGGACAGUGUGUUAAAGAACUGGAGGUGCCUGUGCACACUGGACCCAACAGUCAAAAGACUGCUGACUUGACACGUGACAGUGUGGAAUUCUCGGGUGCCAA | 0.593
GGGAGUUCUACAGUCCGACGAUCACAUUUCUUUAUGUGCUAAAUGUUUGCUCUUUAAAAAUGUCUCAGAGUUAGUUACCAGCUUCCUUGAUUUCAUCUAUACACAAUGAUUAAGUGCAUUUAAUAUUGGUAAUUGGAAUUCUCGGGUGCCAA | 0.403
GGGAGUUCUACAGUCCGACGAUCCUUCUAAUCUGGAAACCUGUGAAGCCUCAGCCCUUGAGAGGGCCCGAGAUGGAUCAGGGAGUUCUAGCUGCACACACCCCGAGCGCCUGAGCCCUCAGAAUGCCCACCAUUGGAAUUCUCGGGUGCCAA | 0.311
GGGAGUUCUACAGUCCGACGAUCUUACUUUUCAGUUAGGUAACUGUGUGAUCCAGUUCUUCCAGCUGCUUCUAUAAUGAGGCACAUAUUAAUACAGUUUUUAUAUGGUAUCUAUGAAAGAGUUCACUUCAUAGUGGAAUUCUCGGGUGCCAA | 0.653
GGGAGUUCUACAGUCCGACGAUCUCUCCCUGGCUGCCUCAGGCUUCUCUUACGAAGAGGAAACGCAAAAAAAGAAAAGGAAAAACCCCGUGCUCGCCCCCUUCCUCCUGCCGUCCACUGCGCGGCCUCGUCAGUGGAAUUCUCGGGUGCCAA | 0.691
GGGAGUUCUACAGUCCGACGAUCAGAAGUUCGGGAAGGUUCACUCUUCCAUAUGCGCUUUUAGGUGAUCAGCCCUCCAUUCCGUCUAGCUGCCUUAGUAAGGAACCUGGGGGUGUGGUUAGUGGAAGACCUGGUGGAAUUCUCGGGUGCCAA | 0.45
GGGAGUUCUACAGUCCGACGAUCUACUCCACGCUGUAUAUCUUUCCAUGCUCCGGCUGCCUGGACCAGUAAAUAAAAUGGAUGUAAUAUAAGUUGUAAGUAACGUUGUCAAAACUCUGAUCCCGAUGGAGGCUUGGAAUUCUCGGGUGCCAA | 0.437
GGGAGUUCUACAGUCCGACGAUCGACAGUCCUUUUCUUCUGAAGUAAAUAUACAUAUAUAAAUAAAUGUAUAAAUACUGCUUUGUAUCUGACUUGCCUCUGACAUCUUCUUGAGAUUGUUCUGGGGGGAGCCAUGGAAUUCUCGGGUGCCAA | 0.414
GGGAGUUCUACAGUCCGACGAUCCUGCCUGCAGGGAGCCCUCAGGGUGCCCUCCAGAGUACAGGGAGAAACUAAAGGCAAUAACAGAAGCUGCUCUCAGAGCCUGACUGUGCACAAAACACUAGUGAAGCCUGUGGAAUUCUCGGGUGCCAA | 0.184
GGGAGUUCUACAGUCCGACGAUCUGCUUCCUAUGACUCCCUGGCUGCACAAGAAGAAAUUGUCUGUCUUCCAUAUAUGCUUCUAAGUAUCCUACCUCUUUGAAGAAAAGAUAGGGAUGGAGUGAGGUGACAGUUGGAAUUCUCGGGUGCCAA | 0.235

Study 3
Target: Histone acetyltransferase KAT6A, winged helix 2, GST fusion (KAT6A, Homo sapiens, UniProt Q92794, residues 85-181)
Technique: protein binding microarray
Form: double-stranded DNA, one strand shown
Matrix: in vitro
Tested at: not given
Setting: 8-mer, flanks averaged, mean of 2 arrays, mostly near background
Reference: not given
Direction: higher = stronger binding
Residues (chain): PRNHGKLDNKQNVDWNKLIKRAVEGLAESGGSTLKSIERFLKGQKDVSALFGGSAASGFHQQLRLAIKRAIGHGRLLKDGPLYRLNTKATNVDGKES
Oligonucleotide | E-score
ACCCCTCT | -0.262
TGTGTAAA | 0.102
CCATGGAA | -0.0797
ACTGTTTG | -0.118
TAACTAGA | -0.0364
TATATAGA | -0.109
CCAGCACG | -0.0217
AGCATAGG | -0.11
ATGTAAGA | 0.00058
CTTAGGCA | -0.0378
AATATCAG | 0.00769
CAAAATCG | -0.0377
CATGAGAA | 0.0118
ACGATCGA | 0.0387
CCAATGGG | -0.0331
ACGACACA | -0.0271
AAACAAGC | -0.00364
AGACTTGA | -0.0709
CTAGGCGA | -0.0788

Study 4
Target: TAR DNA-binding protein 43, full length, His tag (TARDBP, Homo sapiens, UniProt Q13148, residues 1-414)
Technique: RNA Bind-n-Seq
Form: RNA
Matrix: in vitro
Tested at: 20 nM
Setting: 6-mer, flanks averaged, single round
With: 150 mM KCl
Reference: input library
Direction: higher = stronger binding
Oligonucleotide | 6-mer enrichment (R)
AUAGAG | 0.98
GAACUC | 0.738
GACUCC | 0.687
AUGAUG | 0.914
GGUCCA | 0.96
CAUUGA | 0.615
AAAUAU | 0.667
UAUACG | 0.65
CAGGGA | 2.25
AUACGA | 0.635
UCAGCU | 0.6
GUUCGA | 0.763
AGAUGA | 0.84
UUGGCU | 0.721
ACCUGG | 0.937
AAGAAU | 0.891
GUUUUU | 0.776

Study 5
Target: PABPC1L2, full length, GST fusion (mouse, UniProt A0ABA7IW68)
Technique: RNAcompete
Form: RNA
Matrix: in vitro
Tested at: 20 nM
Setting: 7-mer, probes averaged, single round
Reference: mean of 7-mers
Direction: higher = stronger binding
Residues (chain): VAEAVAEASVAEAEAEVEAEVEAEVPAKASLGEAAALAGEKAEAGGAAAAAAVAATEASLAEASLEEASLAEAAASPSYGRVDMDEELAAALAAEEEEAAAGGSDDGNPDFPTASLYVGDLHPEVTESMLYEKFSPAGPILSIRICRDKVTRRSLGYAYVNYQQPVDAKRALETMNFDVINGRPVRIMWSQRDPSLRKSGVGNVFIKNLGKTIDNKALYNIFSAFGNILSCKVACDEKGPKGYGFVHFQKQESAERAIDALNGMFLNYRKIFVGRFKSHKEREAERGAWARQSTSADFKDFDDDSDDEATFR
Oligonucleotide | 7-mer Z-score
UAAGGUU | -0.197
AUUAUUA | -0.19
CAAUAGC | -0.0319
UACAAUC | -0.0192
CCCACCG | -0.416
UCGCACA | -0.222
GUCUUGA | -0.378
CGUAAAU | 0.331
UGGGCCC | -0.191
CGAAGCA | -0.079
CGCUCAG | -0.05
CAAACGG | 0.196
UUAAUUU | -0.242
GGGGCUC | 0.233
GAUGAGA | -0.0355
ACCCUAG | -0.0808
AACCCUG | -0.184
GGGUAAU | 0.151
CGUCACU | -0.434
AGCAGUU | -0.286
UGGUGAC | -0.0264
CAUAGUA | -0.202
CAGAAAC | 0.914

Some of these lines once more (study 5):
Oligonucleotide | 7-mer Z-score
CGCUCAG | -0.05
UAAGGUU | -0.197
CGUCACU | -0.434
CAAUAGC | -0.0319
GGGUAAU | 0.151
GAUGAGA | -0.0355
CAUAGUA | -0.202
CAAACGG | 0.196
AUUAUUA | -0.19
GUCUUGA | -0.378
UGGUGAC | -0.0264
CGUAAAU | 0.331
UCGCACA | -0.222
